Measured values from different studies.
Each numbered part is a random draw from the data of one study; scales do not carry over between parts. Positions count from the first letter of the parent shown.

Study 1 — method: aptamer microarray, sandwich; form: DNA with 2'F-ANA; matrix: in vitro; concentration: 200 nM; added: Cy3 exosite-II aptamer, 400 nM; direction: higher = stronger binding; measurement: mean fluorescence intensity; strand: GGTTGGTGTGGTTGG
Target: Prothrombin, mature alpha-thrombin (F2, Homo sapiens, UniProt P00734)
Setting: whole 15-mer aptamer, many near background
2'F-ANA at 2 8 12 13 15: 618 a.u.
2'F-ANA at 3 4 5 7 9 10 11 12 15: 59.5 a.u.
2'F-ANA at 1 3 4 6 7 8 9 11: 174 a.u.
2'F-ANA at 4 5 9 13 15: 48.4 a.u.
2'F-ANA at 3 4 6 7 8 12: 1030 a.u.
2'F-ANA at 1 2 4 5 7 9 12 13 14: 48.6 a.u.
2'F-ANA at 2 3 4 6 7 14 15: 251 a.u.
2'F-ANA at 1 4 5 6 8 9 10 11 14: 55.7 a.u.
2'F-ANA at 5 7 9 10: 47.9 a.u.
2'F-ANA at 1 3 4 5 6 7 8 9 10 15: 48.8 a.u.
2'F-ANA at 2 3 4 5 7 9 10 12 14: 48.1 a.u.
2'F-ANA at 1 3 4 5 7 11 13 14 15: 69.3 a.u.
2'F-ANA at 1 5 7 8 11 12 14 15: 47.6 a.u.
2'F-ANA at 1 2 3 7 9 11 12 13: 296 a.u.
2'F-ANA at 4 5 8 12 13: 94.2 a.u.
2'F-ANA at 2 4 5 7 9 12 13 15: 89.7 a.u.
2'F-ANA at 3 6 8 10 11 12 13 15: 449 a.u.

Study 2 — target: CCNA1, cyclin fold, Cln2 fusion (human); method: yeast growth competition, sequencing; matrix: yeast; setting: weak parent motif; baseline: not given; direction: higher = stronger binding; measurement: normalised enrichment score
Starting sequence: CDAN1 docking peptide (human); RGARSQLFPPTEA; partner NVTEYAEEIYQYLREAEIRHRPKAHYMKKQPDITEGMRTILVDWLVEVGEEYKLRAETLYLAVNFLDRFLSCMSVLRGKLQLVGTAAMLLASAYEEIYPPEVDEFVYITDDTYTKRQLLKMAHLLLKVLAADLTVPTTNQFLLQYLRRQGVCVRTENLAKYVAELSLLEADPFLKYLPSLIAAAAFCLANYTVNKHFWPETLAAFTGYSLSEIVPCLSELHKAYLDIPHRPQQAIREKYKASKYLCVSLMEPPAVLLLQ
RGARSALFPPTEA [Q6A]: 0.0638
RAARSQLFPPTEA [G2A]: 0.163
RGAASQLFPPTEA [R4A]: 0.0398
RGARAQLFPPTEA [S5A]: 0.709
RGARSQLFPPAEA [T11A]: 0.25
RGARSQLFPATEA [P10A]: 0.414

Study 3 — target: CEP164, C-terminal peptide (human); method: DHFR complementation, deep sequencing; matrix: yeast; baseline: wild type; direction: higher = weaker binding; measurement: binding free energy change
Setting: single substitutions, model-inferred values
Starting sequence: PDZK1, PDZ domain 2 (human); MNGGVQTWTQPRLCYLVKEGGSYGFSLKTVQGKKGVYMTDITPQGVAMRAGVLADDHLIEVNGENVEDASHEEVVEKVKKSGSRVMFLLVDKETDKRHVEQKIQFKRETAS; partner HNRVKVYRF
H98V: -0.0965 kcal/mol
K80E: 0.503 kcal/mol
N2I: -0.042 kcal/mol
V66Q: 0.343 kcal/mol
K18I: 0.829 kcal/mol
Y23M: 0.357 kcal/mol
L88P: 0.433 kcal/mol
G21Y: 0.255 kcal/mol
F87A: 1.41 kcal/mol
V75P: 0.697 kcal/mol
W8F: -0.131 kcal/mol
V30Y: 0.182 kcal/mol
S111H: 0.022 kcal/mol
F87Y: 1.89 kcal/mol
M86F: -0.0187 kcal/mol
K96D: 0.0415 kcal/mol
H71Q: 0.365 kcal/mol
V90T: -0.132 kcal/mol
Y23N: 1.47 kcal/mol
R12S: 0.23 kcal/mol
T94D: 0.132 kcal/mol
S111E: -0.0895 kcal/mol
V99G: -0.14 kcal/mol
G4W: 0.113 kcal/mol
K80G: 0.491 kcal/mol

Study 4 — method: DHFR PCA, deep sequencing; matrix: yeast; added: (+)-ABA 0.11 µM; baseline: wild-type fitted maximum; direction: higher = stronger binding; measurement: relative binding score
Target: ABI1, truncated, D143A, DHFR fusion (Arabidopsis thaliana)
Setting: methotrexate growth selection, single substitutions
Starting sequence: PYL1, truncated, DHFR fusion (Arabidopsis thaliana); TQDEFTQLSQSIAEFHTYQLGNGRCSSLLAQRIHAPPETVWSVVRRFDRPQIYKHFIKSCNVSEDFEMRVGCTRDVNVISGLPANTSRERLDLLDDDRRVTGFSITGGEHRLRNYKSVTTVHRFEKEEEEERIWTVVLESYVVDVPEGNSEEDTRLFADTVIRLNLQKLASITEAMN
R123L: 8.4%
N177R: 15.9%
R88S: 11.4%
S42L: -4.94%
V40Y: -6.98%
I79V: 51.4%
G102A: 9.31%
S140Q: -7.1%
D144M: 4.55%
L8I: 12.6%
R74S: 0.867%
S80V: 3.96%
L82W: 53.1%
S42N: 21%
D97W: -7.03%
T120D: -5.24%
R90W: -0.912%
F47C: 2.65%

Study 5 — method: RNA Bind-n-Seq; form: RNA; matrix: in vitro; concentration: 100 nM; baseline: input RNA pool; direction: higher = stronger binding; measurement: bound/input enrichment
Target: RING finger protein unkempt homolog, zinc fingers 1-6, SBP tag (UNK, Homo sapiens, UniProt Q9C0B0, residues 30-357)
UniProt Q9C0B0, sequence (30-357, looked up): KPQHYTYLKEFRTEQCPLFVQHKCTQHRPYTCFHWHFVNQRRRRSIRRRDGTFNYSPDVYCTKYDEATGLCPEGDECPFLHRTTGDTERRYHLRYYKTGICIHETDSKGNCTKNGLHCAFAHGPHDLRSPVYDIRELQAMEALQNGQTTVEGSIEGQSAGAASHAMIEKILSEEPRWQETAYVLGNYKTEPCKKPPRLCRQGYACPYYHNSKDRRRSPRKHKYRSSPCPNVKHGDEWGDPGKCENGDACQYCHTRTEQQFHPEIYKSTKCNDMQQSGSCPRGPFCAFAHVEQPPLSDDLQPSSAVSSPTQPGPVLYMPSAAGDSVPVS
Setting: RNA with constant flanks, vertebrate orthologous sites, ends assumed
Constant ends, left off below: GGGAGUUCUACAGUCCGACGAUC … CAACAGAGGAUUGAGCAUCA
AGCUAAAAGGAGUUAGCAUCUUUAUUUUUGUAUCAAAGAUAAAGAUUAUUUUGAAACUAUUGGGAUUUUUACACAGCUCUGAAAUCUGUUGCUUUUGUAAACAAGUUGUUUGAUCUUGGG: 0.657 ratio
UCUAGUUCUUAACCACCAACACUCCUAAAAGAUUUAGAAAAAAACGUUUACACCAUAAUCUAGUUUAUGAAGAAGUCUUGUGCUAGAAUACUUUUUAAAAAGUAUUUUUGAAUACCAUUA: 0.977 ratio
UCCCAGCACUUUGAUAAAAAGUGUGGACUGGUUGCUUGUAUUUUCCUUAUUCUUUUUAAUUAGUUUUAUUAUGUAUGCUACCAUUCGAACUGAGAGUAUUCGGUGGCUAAUUCCAGGACA: 3.47 ratio
UUGGAUGAGGGUAGAGGGGAGGGAGGGGCAGGAUAGUAUGGAAUCUCUAGGGUGUUAUGGGUAGGUAGGGGAAACAGUUCUAAGUGGGCCUUUGUUAAAAACCUCUGGAGGUGUCUGUUC: 0.854 ratio
UUUUUGUUAACACGUGACACUGUGUAUUGAGGAUCUUCUGAGGGAGGAGGAAGGAUGCUCUAGCAGUGGUGCCUGGGUUCUUGGCCUCCAGUGCCCCACCACCCUCACCACCCCACCUGG: 0.41 ratio
GUGACUUUGGACGUCCGUUCAUGCUUGGUGUAGGGACUGCUUAGUGCCGGGCCUUGCAGUUUUGAUCUUUUCUUUUCGAGCCGAGGCCUCUGCUGCAGCCAUGUUACGCCAGAUCUUCGG: 0.25 ratio
GUUGUGACCCAUUUAACAUCCACAAAAAACUAGCCAAAAAGAAUUUGCAUGUAAUUGACUUAGAUGAUGCCACUUUUCUGAGUGCGAAAUUUGGUAGACAGCUUGUGCCCGGUUGGAAGC: 1.39 ratio
AGGAAAUGUUGGCUGCAAACCCUCAGGAUCGUCCCGACGCUUUUGAGCUAGAACUUAGAUUAGUCCAAAUUGCUUUUAAAGAUAGUGGCUGGGAUACGUGACACAUGGAUUACUGGGAAA: 1.4 ratio
UGACCAUACAUACAAAAUGUGCUUUGAGUCAUGAGUGUGAAUGAAACCAUAGCUUGAAAAGAAUUCACUUUUAGAACUAUACAACACAUAAGAACCCAUAAGCCAGAGGCCUGAGUUCUU: 0.402 ratio
GCCUGUCCUUAUACUCUUCUGUGAAAGAGAUGAAUUAGGGAAAACUGUCUCCUUUUUAUAGUUUGUUUCUAAAUUAUGACCAAAAAAUAUUUUGCUAUUUCUUUCUUUAUAUAUGGACAU: 0.725 ratio
GUGAAUAUUUGGAGUCCACAUCGUUGCUCUGAGACCCCUGCCGUCUGGAGGCUCAGACCACAGGAGGGUGUUGCUGCGUUUUCCCAAUUUGUGUACUGGGUCCUAAGUUACAUUUUAAAA: 0.339 ratio

Study 6 — target: CREM, bZIP domain (human); method: DHFR protein complementation; matrix: yeast; baseline: wild-type JUN-FOS pair; direction: higher = stronger binding; measurement: binding fitness
Setting: single substitutions, most at no-binding floor
Starting sequence: JUN, bZIP domain (human); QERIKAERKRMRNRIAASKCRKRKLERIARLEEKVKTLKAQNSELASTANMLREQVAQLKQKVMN; partner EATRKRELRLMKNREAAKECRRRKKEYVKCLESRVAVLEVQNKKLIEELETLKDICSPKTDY
M51N: -1.47 natural log
K34M: -1.29 natural log
K39H: -1.52 natural log
I28E: -1.34 natural log
I28L: -1.58 natural log
M51V: -1.42 natural log
S43M: -1.38 natural log
A57V: -1.43 natural log
A49E: -1.52 natural log
A29D: -1.68 natural log
K36P: -1.43 natural log
Q41S: -1.54 natural log
L31S: -1.56 natural log

Other studies, line by line
PhoQ, residues 284 288 289 292 302 303 HSSMNL  fold induction (PhoP, residues 12 14 15 18 19 DLLYY (Escherichia coli, UniProt P23836); Sort-seq, measured: YFP reporter; E. coli; PhoQ-PhoP variant library, added: 10 µM Mg2+; baseline: high Mg2+ state, higher = stronger signaling): 2.83

For quick reference, copied from above (study 4):
V40Y: -6.98%
L8I: 12.6%
R90W: -0.912%
D97W: -7.03%
R74S: 0.867%
